Experimental data collected from several papers.
Lines come from different studies, so protocols differ. ≈ marks a conversion by molar mass, not a printed value.
CYP2C9: Cytochrome P450 2C9 (CYP2C9, Homo sapiens, UniProt P11712)
Chain of UniProt P11712 (whole entry, looked up): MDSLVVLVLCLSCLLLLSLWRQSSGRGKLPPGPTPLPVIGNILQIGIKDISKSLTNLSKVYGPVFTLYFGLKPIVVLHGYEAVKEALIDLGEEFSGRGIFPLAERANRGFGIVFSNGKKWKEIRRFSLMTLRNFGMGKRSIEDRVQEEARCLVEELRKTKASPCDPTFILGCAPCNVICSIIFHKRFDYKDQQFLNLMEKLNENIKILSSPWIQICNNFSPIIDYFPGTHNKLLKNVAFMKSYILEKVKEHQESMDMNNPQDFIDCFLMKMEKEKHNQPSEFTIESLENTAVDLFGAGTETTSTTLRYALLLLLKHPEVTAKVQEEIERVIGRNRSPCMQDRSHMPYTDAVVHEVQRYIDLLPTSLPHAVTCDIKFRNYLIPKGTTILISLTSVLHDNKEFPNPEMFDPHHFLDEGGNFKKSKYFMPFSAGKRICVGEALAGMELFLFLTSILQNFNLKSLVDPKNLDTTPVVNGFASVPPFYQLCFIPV
Chain of UniProt O15244 (whole entry, looked up): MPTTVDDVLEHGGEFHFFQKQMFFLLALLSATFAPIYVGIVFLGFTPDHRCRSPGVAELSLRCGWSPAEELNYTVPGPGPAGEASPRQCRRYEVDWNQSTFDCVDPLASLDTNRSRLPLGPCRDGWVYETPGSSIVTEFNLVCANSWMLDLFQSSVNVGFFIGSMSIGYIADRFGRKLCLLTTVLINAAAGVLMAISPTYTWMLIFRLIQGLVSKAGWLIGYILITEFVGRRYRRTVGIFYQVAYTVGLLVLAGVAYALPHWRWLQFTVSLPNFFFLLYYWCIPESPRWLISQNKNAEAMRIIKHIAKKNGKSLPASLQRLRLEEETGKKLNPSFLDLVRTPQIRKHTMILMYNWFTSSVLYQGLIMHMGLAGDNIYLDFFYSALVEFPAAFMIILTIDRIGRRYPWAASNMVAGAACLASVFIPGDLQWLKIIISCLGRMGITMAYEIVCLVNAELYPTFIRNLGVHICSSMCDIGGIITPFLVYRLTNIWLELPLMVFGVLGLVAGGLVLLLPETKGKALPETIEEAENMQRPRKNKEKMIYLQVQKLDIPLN
Chain of UniProt P33261 (whole entry, looked up): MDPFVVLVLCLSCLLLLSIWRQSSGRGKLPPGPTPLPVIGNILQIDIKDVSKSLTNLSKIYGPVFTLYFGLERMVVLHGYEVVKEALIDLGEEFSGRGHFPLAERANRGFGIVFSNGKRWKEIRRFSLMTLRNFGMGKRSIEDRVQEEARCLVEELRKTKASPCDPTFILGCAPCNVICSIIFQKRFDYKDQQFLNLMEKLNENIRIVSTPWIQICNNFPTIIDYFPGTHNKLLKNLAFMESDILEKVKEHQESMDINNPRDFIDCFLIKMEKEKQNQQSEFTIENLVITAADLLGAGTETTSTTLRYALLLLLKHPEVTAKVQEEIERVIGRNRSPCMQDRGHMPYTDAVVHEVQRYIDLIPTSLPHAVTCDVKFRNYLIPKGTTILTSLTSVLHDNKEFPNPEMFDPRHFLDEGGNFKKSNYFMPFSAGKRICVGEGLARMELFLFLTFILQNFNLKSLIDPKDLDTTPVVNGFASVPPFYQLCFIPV

Structure (SMILES) | target or system | test | test system | conditions | measurement | result
COc1cccc(OC)c1-c1cc(C(=O)NC2(C(=O)O)C3CC4CC(C3)CC2C4)nn1-c1ccc(C(=O)N(C)CCCN(C)CCCN(C)C(=O)CN2CCN(CC(=O)[O-])CCN(CC(=O)[O-])CCN(CC(=O)[O-])CC2)cc1C(C)C.[177Lu+3] (stereo not shown) | HT-29 tumour model |  | host not given, pancreas | 72 h, tumour-bearing | tracer uptake | 0.09 %ID/g
O=C(O)COc1cccc(-c2nc(Nc3ccc4[nH]ncc4c3)c3ccccc3n2)c1 | SLC22A2 (Homo sapiens, UniProt O15244) | transporter uptake, inhibitor, radiometric |  |  | IC50 | > 500 µM
COc1cccc(-c2n[nH]c(SCc3ccccn3)n2)c1OC |  |  | male Sprague-Dawley rat, plasma | oral, 30 mg/kg, 8 h, single dose | concentration | 263 ng/mL
CCn1cc(C2CC2)c2c(Cc3cnc(C(F)(F)F)c(OC)c3)n(C)nc2c1=O |  | nephelometry | aqueous buffer | 30 min, pH 6.5 | kinetic solubility | 60 to 120 µM (≈ 24.4 to 48.8 µg/mL)
Cc1noc(C)c1Cn1cc(N2C(=O)CN(Cc3cccc(O)c3)C2=O)cn1 |  |  | male Sprague-Dawley rat, plasma | oral, 100 mg/kg, 30 min | concentration | 68.1 ng/mL
Cc1nnc(-c2ccccc2)nc1O | K562 | cell growth or viability |  |  | IC50 | > 200 µM
NC(=O)C1CCN(C(=O)Cc2ccc(N(CCCO)Cc3cnc4nc(N)nc(N)c4n3)cc2)CC1 | CYP2C19 (Homo sapiens, UniProt P33261) | enzyme activity, inhibitor, luciferase |  | 10 µM | inhibition | -15.4%
Cn1nc2c(=O)n(C3CC3)ccc2c1[C@](O)(c1ccc(C(F)(F)F)nc1)C(F)(F)F |  | nephelometry | aqueous buffer | 30 min, pH 6.5 | kinetic solubility | 50 to 100 µM (≈ 21.6 to 43.2 µg/mL)
O=C(Nc1c2c(cc3c1CCC3)CCC2)NS(=O)(=O)/C=C/c1nccs1 | CYP2C9 | enzyme activity, inhibitor | human, liver microsomes | 10 µM, pH 7.4 | inhibition | 52.8%
Cc1ccc(N(C)c2ccc(NC(=O)CN(C)c3cc(F)ccc3N3CCCC3=O)cc2)cc1 | HepG2 | cell growth or viability, ATP luminescence |  | 48 h | CC50 | > 40 µM
CCn1cc(C2CC2)c2c(CN3CCC4(CCC4)CC3)n(C)nc2c1=O |  | nephelometry | aqueous buffer | 30 min, pH 6.5 | kinetic solubility | 80 to 160 µM (≈ 28.4 to 56.7 µg/mL)
Nc1ccn([C@@H]2O[C@H](CO)[C@@H](O)C2(F)F)c(=O)n1 | MDA-MB-231 | cell growth or viability, MTT |  | 5 µg/mL, 24 h | viability | 56.6%
Cc1cc(C)cc(NC(=O)Nc2ccc(N3CCCCC3)cc2)c1 | K562 | cell growth or viability |  |  | IC50 | 16.1 µM
CCn1cc(C2CC2)c2c([C@H](O)c3cnc(C(F)(F)F)c(Cl)c3)n(C)nc2c1=O |  | nephelometry | aqueous buffer | 30 min, pH 6.5 | kinetic solubility | 80 to 160 µM (≈ 34.1 to 68.3 µg/mL)
O=C(c1ccc(F)cc1)C1CCN(CCn2c(=O)[nH]c3ccccc3c2=O)CC1 |  | metabolic stability | monkey, liver microsomes | 15 min | compound remaining | 59.9%
Cn1nc2c(=O)n(C3CC3)ccc2c1[C@](N)(c1cnc(C(F)(F)F)c(Cl)c1)C(F)(F)F |  | nephelometry | aqueous buffer | 30 min, pH 6.5 | kinetic solubility | 40 to 80 µM (≈ 18.6 to 37.3 µg/mL)
Nc1nc(N)c2nc(CNc3ccc(C(=O)N4CCC(C(=O)O)CC4)cc3)cnc2n1 | CYP2C9 | enzyme activity, inhibitor, luciferase |  | 10 µM | inhibition | -10.5%
Cn1nc2c(=O)n(C3CC3)cnc2c1[C@](O)(c1ccc(C(F)(F)F)c(Cl)c1)C(F)(F)F |  | nephelometry | aqueous buffer | 30 min, pH 6.5 | kinetic solubility | 20 to 40 µM (≈ 9.34 to 18.7 µg/mL)
CC(=O)c1nn(-c2ccc(C)cc2)/c(=N/N=C(\C)c2ccc(NC(=O)c3ccccc3)cc2)s1 | WI-38 | cell growth or viability, MTS |  | 78 nM, 24 h | viability | 91.8%
